Published values gathered from unrelated publications.
Compare with care: the assays were run in different laboratories.
Cell line: HCT-116
Read-out: cell growth or viability

The viability of `COc1ccc(NC(=O)c2c(Nc3ccccc3)sc(C#N)c2NC(=O)CNc2ccc(O)cc2)cc1` is reported as 87.9% (SRB; 0.1 µM, 48 h).
`COc1cccc2c1C(=O)c1c(O)c3c(c(O)c1C2=O)C[C@@](O)(C(=O)CO)C[C@@H]3O[C@H]1C[C@H](N)[C@H](O)[C@H](C)O1` gave an IC50 of 50 nM (WST-1; 72 h).
For `COc1ccc(NC(=O)c2c(Nc3ccccc3)sc(C#N)c2NC(=O)CNc2ccc(Cl)cc2)cc1`, the viability was 85.2% (SRB; 10 nM, 48 h).
`NCC(=O)Nc1ccccc1/N=c1\cc(-c2ccc3c(c2)OCCO3)oc2cc(F)ccc12` gave an inhibition of 4.37% (CCK-8; 1 µM).
For `NC(=O)NOCCCCCCCCCC[P+](c1ccccc1)(c1ccccc1)c1ccccc1`, the IC50 was 8500 nM (imaging).
For `COc1ccc2/c(=N/c3ccccc3NC(=O)[C@@H](N)C(C)(C)C)cc(-c3ccc4c(c3)OCCO4)oc2c1`, the inhibition was 12.3% (CCK-8; 1 µM).
`CC(=NNC(=O)COc1ccc2c(C)c(Cc3ccccc3)c(=O)oc2c1C)c1ccc(Br)cc1` gave a viability of 61.7% (MTT; 1.6 µg/mL).
`NC(=O)NOCCCCCCCCCCCCCCCC[P+](c1ccccc1)(c1ccccc1)c1ccccc1` gave an IC50 of 500 nM (imaging).
For `NCCC(=O)Nc1ccccc1/N=c1\cc(-c2ccc3nc(N)oc3c2)oc2ccccc12`, the inhibition was 78.5% (CCK-8; 1 µM).

A few entries again:
For `COc1ccc2/c(=N/c3ccccc3NC(=O)[C@@H](N)C(C)(C)C)cc(-c3ccc4c(c3)OCCO4)oc2c1`, the inhibition was 12.3% (CCK-8; 1 µM).
